Measurements from different studies.
Protocols differ between the studies behind these lines. ± gives the spread as reported.

SMILES = COc1nnc2ccc(N3CCC(c4ccc(OCCN5CCN(C)C(=O)[C@H]5C)cc4)CC3)nn12; cell line = MP38 uveal melanoma BAP1-mutant; test = cell viability, CellTiter-Glo; setting = 72 h; IC50 = 88.7 nM
SMILES = C=CC(=O)NC1CCN(c2ncc3ncnc(Nc4ccc(Oc5ccc6c(c5)ncn6C)c(C)c4)c3n2)CC1; cell line = Ba/F3 expressing HER2 V659E; test = cell growth, inhibitor, CellTiter-Glo; IC50 = 7 nM
SMILES = CC(=O)O[C@H]1C(=O)[C@@]2(C)[C@H]([C@H](OC(=O)c3ccccc3)[C@]3(O)C[C@H](OC(=O)[C@H](O)[C@@H](NC(=O)c4ccccc4)c4ccccc4)C(C)=C1C3(C)C)[C@]1(OC(C)=O)CO[C@@H]1C[C@@H]2O; cell line = KB-C2; test = cell viability; IC50 = 3910 ± 264 nM
SMILES = CC[C@H](C)[C@@H]1NC(=O)[C@H](Cc2ccc(-c3ccccc3)cc2)NC(=O)[C@H](CC(C)C)NC(=O)[C@@H]2[C@@H](c3ccccc3)CCN2C(=O)[C@H](NC(=O)[C@H](CCCNC(=N)N)NC(=O)[C@H](CCCNC(=N)N)NC(=O)[C@H](CCCCN=[N+]=[N-])NC(C)=O)CSCSC[C@@H](C(=O)N[C@@H](CCCNC(=N)N)C(=O)N[C@@H](CCCNC(=N)N)C(N)=O)NC(=O)[C@H](C(C)C)NC(=O)[C@@H]2CCCN2C(=O)[C@H](CC(=O)O)NC(=O)[C@H](Cc2ccc(O)cc2)NC(=O)[C@H](CO)NC1=O; cell line = A-375 (BRAF V600E); test = AlphaScreen, measured: pERK; setting = 18 h; IC50 = > 50000 nM
SMILES = O=C1CCCCC1C1C2C=CC=CC1C(C1CC1)=C2 (stereo not drawn); cell line = normal fibroblasts; test = cytotoxicity; IC50 = 241 ± 22 nM
SMILES = CCc1nc(C(N)=O)c(Nc2ccc(N3CCC(N4CCN(C)CC4)CC3)c(OC)c2)nc1NC1CCOCC1; cell line = primary AML mononuclear cells, FLT3-ITD positive; test = cell viability, MTS; setting = ex vivo; IC50 = 1650 nM
SMILES = N#CCCCC1=CC2C=CC=CC1C2C1CCCCC1=O (stereo not drawn); cell line = normal fibroblasts; test = cytotoxicity; IC50 = 389 ± 34 nM
SMILES = C[C@H](Nc1ccc2c(c1)OCCn1cc(N3C(=O)OC[C@H]3C(F)F)nc1-2)C(N)=O; cell line = BT-483; test = growth rate inhibition, CellTiter-Glo; setting = 120 h; IC50 = 10000 nM
SMILES = CC(C)(C)SCCCC1=CC2C=CC=CC1C2C1CCCCC1=O (stereo not drawn); cell line = normal fibroblasts; test = cytotoxicity; IC50 = 311 ± 28 nM
SMILES = COc1ccc(N(C)c2nc(C)nc3ccccc23)cc1OCCCC(=O)NO; cell line = MP38 uveal melanoma BAP1-mutant; test = cell viability, CellTiter-Glo; IC50 = 17400 nM
SMILES = Cc1nc(Nc2ncc(C(=O)Nc3c(C)cccc3Cl)s2)cc(N2CCN(CCO)CC2)n1; cell line = NCI-H1975 (EGFR L858R/T790M); test = cell viability, MTT; setting = 72 h; IC50 = 100000 nM
SMILES = Nc1cccc2c1C(=O)N(C1CCC(=O)NC1=O)C2=O (stereo not drawn); cell line = MM1.S, compound-resistant; test = cell viability, XTT; IC50 = ~1600 nM
SMILES = N#CCCC1=CC2C=CC=CC1C2C1CCCCC1=O (stereo not drawn); cell line = normal fibroblasts; test = cytotoxicity; IC50 = 629 ± 54 nM
SMILES = CCNCCCn1c2c(c3cc(OC)c(OC)cc3c1=O)C(=O)c1cc3c(nc1-2)OCO3; cell line = CHLA-32 Ewing sarcoma cells; test = cytotoxicity, MTS; setting = 72 h; IC50 = 33 nM
SMILES = CS(=O)(=O)CCNCc1ccc(-c2ccc3ncnc(Nc4ccc(OCc5cccc(F)c5)c(Cl)c4)c3c2)o1; cell line = Ba/F3 expressing HER2 S310F; test = cell growth, inhibitor, CellTiter-Glo; IC50 = 24.9 nM
SMILES = CC(C)C[C@H](NC(=O)[C@H](Cc1ccccc1)NC(=O)c1cnccn1)B(O)O; cell line = MP38 uveal melanoma BAP1-mutant; test = cell viability, CellTiter-Glo; setting = 72 h; IC50 = 14.9 nM
SMILES = COc1cc2c3c(n(CCCn4ccnc4)c(=O)c2cc1OC)-c1nc2c(cc1C3=O)OCO2; cell line = CHLA-32 Ewing sarcoma cells; test = cytotoxicity, MTS; setting = 72 h; IC50 = 280 nM
SMILES = C=CCO[C@H]1CCN2C(=O)[C@H](NC(=O)[C@H](CCCNC(=N)N)NC(=O)[C@H](CCCNC(=N)N)NC(C)=O)CSCSC[C@@H](C(=O)N[C@@H](CCCNC(=N)N)C(=O)N[C@@H](CCCNC(=N)N)C(N)=O)NC(=O)[C@H](C(C)C)NC(=O)[C@@H]3CCCN3C(=O)[C@H](CC(=O)O)NC(=O)[C@H](Cc3ccc(O)cc3)NC(=O)[C@H](CO)NC(=O)[C@H]([C@@H](C)CC)NC(=O)[C@H](Cc3ccc(-c4ccccc4)cc3)NC(=O)[C@H](CC(C)C)NC(=O)[C@H]12; cell line = A-375 (BRAF V600E); test = AlphaScreen, measured: pERK; setting = 18 h; IC50 = > 50000 nM
SMILES = CNC(=O)c1cc(Oc2ccc(NC(=O)Nc3ccc(Cl)c(C(F)(F)F)c3)cc2)ccn1; cell line = primary AML mononuclear cells, FLT3-ITD positive; test = cell viability, MTS; setting = ex vivo; IC50 = 2010 nM
SMILES = CC[C@H](C)[C@@H]1NC(=O)[C@H](Cc2ccc(-c3ccccc3)cc2)NC(=O)[C@H](CC(C)C)NC(=O)[C@@H]2[C@@H](c3ccccc3)CCN2C(=O)[C@H](NC(=O)[C@@H](CCCNC(=N)N)NC(=O)[C@@H](CCCNC(=N)N)NC(C)=O)CSCSC[C@@H](C(=O)N[C@H](CCCNC(=N)N)C(=O)N[C@H](CCCNC(=N)N)C(N)=O)NC(=O)[C@H](C(C)C)NC(=O)[C@@H]2CCCN2C(=O)[C@H](CC(=O)O)NC(=O)[C@H](Cc2ccc(O)cc2)NC(=O)[C@](C)(CO)NC1=O; cell line = A-375 (BRAF V600E); test = AlphaScreen, measured: pERK; setting = 18 h; IC50 = > 50000 nM
SMILES = CC(C)(C)Cn1c(N)nc2ccc(-c3[nH]c(C(C)(C)C)nc3-c3ccc(F)cc3)nc21; cell line = NCI-H1975 (EGFR L858R/T790M); test = cell growth; IC50 = 16700 nM
SMILES = CCCCCC/C=C1\CC2C=CC=CC1C2C1CCCCC1=O (stereo not drawn); cell line = normal fibroblasts; test = cytotoxicity; IC50 = 127 ± 11 nM
SMILES = O=C(Nc1cccc2cccnc12)c1cnccn1; cell line = HFF-1; test = MTT; IC50 = > 30000 nM
SMILES = Cc1nc(NC(=O)N2CCC[C@H]2C(N)=O)sc1-c1ccnc(C(C)(C)C(F)(F)F)c1; cell line = TCC-SUP; test = cell growth, CellTiter-Glo; setting = 120 h; IC50 = 1100 nM
SMILES = CNC(=S)N/N=C/c1cccc2cc3ccccc3nc12; cell line = PATU; test = cell proliferation, MTT; setting = 48 h; IC50 = 15700 ± 2400 nM
SMILES = COC(=O)CCC1=CC2C=CC=CC1C2C1CCCCC1=O (stereo not drawn); cell line = normal fibroblasts; test = cytotoxicity; IC50 = 562 ± 42 nM
SMILES = S=C(N/N=C/c1cccc2cc3ccccc3nc12)Nc1ccccc1; cell line = PATU; test = cell proliferation, MTT; setting = 48 h; IC50 = > 50000 nM
SMILES = Cc1cn(C2CCN(Cc3ccnc(Oc4cccc(Cl)c4)c3)CC2)c(=O)[nH]c1=O; cell line = MRC-5 cells; test = cytotoxicity; setting = 3 days; IC50 = 58900 nM
SMILES = Cc1c(C)c2c(c(C)c1O)CCC(C)(COc1ccc(CC3SC(=O)NC3=O)cc1)O2 (stereo not drawn); cell line = THLE-2, 3D culture; test = MTT; IC50 = 70900 ± 87 nM
SMILES = CCOc1cc2ncc(C#N)c(Nc3ccc(OCc4ccccn4)c(Cl)c3)c2cc1NC(=O)/C=C/CN(C)C; cell line = Ba/F3 expressing HER2 V659E; test = cell growth, inhibitor, CellTiter-Glo; IC50 = 5.4 nM
SMILES = O=C1CCCCC1C1C2C=CC=CC1C(CCN1C(=O)c3ccccc3C1=O)=C2 (stereo not drawn); cell line = normal fibroblasts; test = cytotoxicity; IC50 = 196 ± 19 nM
SMILES = COc1ccc(-c2nc(N3CCOCC3)c3sc(CN(C)c4ncc(C(=O)NO)cn4)cc3n2)cn1; cell line = MP38 uveal melanoma BAP1-mutant; test = cell viability, CellTiter-Glo; setting = 72 h; IC50 = 17.6 nM
SMILES = CN1CCN(c2ccc3nc(-c4c(N)c5c(F)cccc5[nH]c4=O)[nH]c3c2)CC1; cell line = primary AML mononuclear cells, FLT3-ITD positive; test = cell viability, MTS; setting = ex vivo; IC50 = 1120 nM
SMILES = COc1c(Cl)cccc1Nc1c(-c2ccncc2OC[C@@H]2COCCO2)[nH]c2c1C(=O)NCC2; cell line = Ba/F3 expressing HER2 V659E; test = cell growth, inhibitor, CellTiter-Glo; IC50 = 13.4 nM
SMILES = C=CCn1c(=O)c2cnc(Nc3ccc(N4CCN(C)CC4)cc3)nc2n1-c1ccc2c(n1)[C@@](O)(CC)CC2; cell line = MDA-MB-231; test = cell viability, CellTiter-Glo; setting = 72 h; IC50 = 627 nM
SMILES = Cn1cc(CNCC2CCN(c3ncc(C(=O)NO)cn3)CC2)c2ccccc21; cell line = MP38 uveal melanoma BAP1-mutant; test = cell viability, CellTiter-Glo; setting = 72 h; IC50 = 11.6 nM
SMILES = CCCCC[C@@H]1NC(=O)[C@@H]2CCCN2C(=O)[C@H](CC(=O)O)NC(=O)[C@H](Cc2ccc(O)cc2)NC(=O)[C@H](CO)NC(=O)[C@H]([C@@H](C)CC)NC(=O)[C@H](Cc2ccc(-c3ccccc3)cc2)NC(=O)[C@H](CC(C)C)NC(=O)[C@@H]2[C@@H](c3ccccc3)CCN2C(=O)[C@H](NC(=O)[C@H](CCCNC(=N)N)NC(=O)[C@H](CCCNC(=N)N)NC(C)=O)CSCSC[C@@H](C(=O)N[C@@H](CCCNC(=N)N)C(=O)N[C@@H](CCCNC(=N)N)C(N)=O)NC1=O; cell line = A-375 (BRAF V600E); test = AlphaScreen, measured: pERK; setting = 18 h; IC50 = > 50000 nM
SMILES = Cc1[nH]c2ccccc2c1CCNCc1ccc(/C=C/C(=O)NO)cc1; cell line = MP38 uveal melanoma BAP1-mutant; test = cell viability, CellTiter-Glo; setting = 72 h; IC50 = 35.8 nM
SMILES = Cc1cc(-c2nc(C(=O)Nc3cc4oc(N5CCOCC5)nc4nc3N3CC[C@@H](O)C3)co2)ccn1; cell line = OCI-Ly3 (MYD88 L265P); test = cell growth, cell count; setting = 120 h; IC50 = 1210 nM
SMILES = CCCCN1C[C@H](O)[C@@H](O)[C@@H](O)[C@H]1CO; cell line = sample BA patient fibroblasts; test = Gb3 level lowering, LC-MS/MS, measured: Gb3 d18:1/16:0; setting = 216 h; IC50 = 14900 nM
SMILES = COc1cccc(NC(=S)N/N=C/c2cccc3cc4ccccc4nc23)c1; cell line = PATU; test = cell proliferation, MTT; setting = 48 h; IC50 = > 50000 nM
SMILES = COc1cc2c3c(n(CCCNCCO)c(=O)c2cc1OC)-c1nc2c(cc1C3=O)OCO2; cell line = CHLA-32 Ewing sarcoma cells; test = cytotoxicity, MTS; setting = 72 h; IC50 = 96 nM
SMILES = CN1CCC(NC2CCc3[nH]c4c(C(N)=O)ccc(-c5ccccc5Cl)c4c3C2)CC1 (stereo not drawn); cell line = MCF7/PTX, paclitaxel-resistant; test = cell growth, CellTiter-Glo; setting = 96 h; IC50 = 29 nM
SMILES = Cc1c(C(=O)O)ccc2c3n(nc12)[C@@H]1[C@H](C3)N(CC2CC2)[C@@]2(C(=O)Nc3cc(Cl)ccc32)[C@H]1c1cccc(Cl)c1F; cell line = JAR; test = cell proliferation, alamarBlue; IC50 = 1.06 nM
SMILES = COc1cc([C@@H]2c3cc4c(cc3[C@H](O)[C@H]3COC(=O)[C@H]23)OCO4)cc(OC)c1OC; cell line = MP38 uveal melanoma BAP1-mutant; test = cell viability, CellTiter-Glo; setting = 72 h; IC50 = 15 nM
SMILES = O=C(CCCCCONC(=O)c1nc(-c2ccccn2)cs1)NO; cell line = neonatal foreskin fibroblasts; test = cytotoxicity, sulforhodamine B; setting = 72 h; IC50 = 7130 nM
SMILES = CCCNC(=S)N/N=C/c1cccc2cc3ccccc3nc12; cell line = PATU; test = cell proliferation, MTT; setting = 48 h; IC50 = > 50000 nM
SMILES = Cc1cc(Nc2ncnc3ccc(NC4=NC(C)(C)CO4)cc23)ccc1Oc1ccn2ncnc2c1; cell line = Ba/F3 expressing HER2 S310F; test = cell growth, inhibitor, CellTiter-Glo; IC50 = 6.7 nM
SMILES = O=C(CCCCCONC(=O)c1nc(-c2cccnc2)cs1)NO; cell line = neonatal foreskin fibroblasts; test = cytotoxicity, sulforhodamine B; setting = 72 h; IC50 = 40100 nM
SMILES = Cn1nnc2c(C(N)=O)ncn2c1=O; cell line = sample A patient-derived glioblastoma; test = neurosphere formation; IC50 = 5100 nM
SMILES = C=CC(=O)Nc1cc(Nc2nccc(-c3cn(C)c4ccccc34)n2)c(OC)cc1N(C)CCN(C)C; cell line = Ba/F3 EGFR G719S; test = cell proliferation, CellTiter-Glo; setting = 72 h; IC50 = 34.92 ± 0.01 nM
